Published values gathered from unrelated publications.
Every numbered part comes from another study and shows a few of its results, in no order. Positions count from the first letter of the parent shown.
UniProt Q15569, sequence (whole entry, looked up): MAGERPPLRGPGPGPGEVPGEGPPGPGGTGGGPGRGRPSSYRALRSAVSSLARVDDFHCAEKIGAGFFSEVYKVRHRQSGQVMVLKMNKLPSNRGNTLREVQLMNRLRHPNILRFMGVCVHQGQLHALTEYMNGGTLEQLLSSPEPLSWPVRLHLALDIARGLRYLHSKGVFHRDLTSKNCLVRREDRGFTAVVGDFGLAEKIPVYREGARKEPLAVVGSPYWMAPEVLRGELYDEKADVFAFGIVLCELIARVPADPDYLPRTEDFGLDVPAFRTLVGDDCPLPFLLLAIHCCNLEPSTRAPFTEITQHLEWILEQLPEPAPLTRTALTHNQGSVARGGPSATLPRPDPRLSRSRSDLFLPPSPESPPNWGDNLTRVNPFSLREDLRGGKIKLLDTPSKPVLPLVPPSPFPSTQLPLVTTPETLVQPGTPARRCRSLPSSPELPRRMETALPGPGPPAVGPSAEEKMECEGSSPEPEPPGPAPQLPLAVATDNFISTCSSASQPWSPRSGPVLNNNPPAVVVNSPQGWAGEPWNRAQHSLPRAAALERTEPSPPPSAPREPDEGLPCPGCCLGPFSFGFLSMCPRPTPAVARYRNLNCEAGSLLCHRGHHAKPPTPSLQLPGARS

Series 1 — target: CRIPT, C-terminal peptide; method: DHFR complementation, deep sequencing; matrix: yeast; relative to: wild type; reading: higher = weaker binding
Setting: single substitutions, model-inferred values
Starting sequence: ERBIN, PDZ domain 1 (human); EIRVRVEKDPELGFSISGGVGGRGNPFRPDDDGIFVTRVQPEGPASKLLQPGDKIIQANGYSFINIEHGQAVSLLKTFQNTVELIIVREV; partner TKNYKQTSV
Change	binding free energy change
I86L	0.00102 kcal/mol
F78Q	0.0547 kcal/mol
V36H	0.906 kcal/mol
R5V	0.129 kcal/mol
Q70K	0.0776 kcal/mol
D30H	0.214 kcal/mol
F35A	1.03 kcal/mol
V36S	0.683 kcal/mol

Series 2 — method: RNA Bind-n-Seq; form: RNA; matrix: in vitro; tested at: 365 nM; relative to: no-protein control; reading: higher = stronger binding
Target: RNA binding protein fox-1 homolog 2, RRM domain, GST-SBP tag (RBFOX2, Homo sapiens, UniProt O43251-10, residues 100-194)
Setting: natural RNA segment, single round, ends assumed
Shared flanks, not repeated: GGGAGUUCUACAGUCCGACGAUC … UGGAAUUCUCGGGUGCCAA
Residues (chain): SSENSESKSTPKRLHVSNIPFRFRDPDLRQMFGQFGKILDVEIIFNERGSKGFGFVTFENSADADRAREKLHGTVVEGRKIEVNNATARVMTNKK
Oligonucleotide	RBNS enrichment (R)
AAACGGAGCAUGCGUGUAGCGAGCCUGCCUUGCUCUGCCUCUGCACGGACCGCUCCCUCUCUUCUUCAGGAGACUUUAUAAUUUACCUGAAGAGGUUUUCUUGAUAAUUU	0.542
GAUCUUUUCCUUCAAGAACAUUCUUUUCUAUAGAAAAAUGAUUCCCUGUGAUCUUCUGGAAGCUCCAAAGCUGAAACCCUUCAGCUUUGCAACUAAAAAUAUUACAGUUU	0.318
CUGGCUCUGACACUGUUGGGUGAGGGUCCUGGUCCUGCUGUCUUCCCUUCUGGCCUCUGCACAGGGGUGGUGACAGUGGCUACAGGCUGGGCCCCUGGCGUGCCCUGACC	0.228
GUUGAUUUCUCUACAGAGCUUAGCUUGUGUAGUUAUUUCUCUUUUACUGUUGCUUUGGUGUGUCUUGAAGUUUGAUUGAUUAUUUUUGGUCAUUGAGUUCUUAGUGUAGU	1.42
AUCAGUUAUCACAGCUGCCUGUGGGUCCCGGGUAUUUCCAUUCCUGCCCCUUGUUGGCCCGAGGAAGGAUGUGGAAAGAGCACCUGGUGGGAUGAAGGUCCAACAGCCUG	0.289
AAAUGUGAGUGCCCUUGAUCUUGUAUUGAUCAGUGCCAAUGUACUGGGAAAGCAGGUACCCCAGUGAAACUGGUCUGUGCUUGGUUUAACAGCUCCAACAAUUUCAGAUC	0.594
AUGAUGAACAUGGAGCUGCAUCUUUUUAAACGUUGUUUUUUGAUGCUUCAGACUCUUAAUGCUUUUAUAUAAAGCUAUCAACUGUAUGUUGAUCACAGUUUAUAAGAAAG	0.325
GGGCGCCCCCGCCCUGCUGGGGCUAUUUAUUGUUUAAUUUAUUUGCUGAGGUUCCUCCAAGCAACCACCUUCUCCAGGCCCCUGGGGUGUUGAAAGUCAAAUGUGGCUGU	0.583

Series 3 — method: EMSA with sequencing; form: double-stranded DNA, one strand shown; matrix: in vitro; tested at: 10 and 20 nM; relative to: negative control set to 0; reading: higher = stronger binding
Target: Hepatocyte nuclear factor 3-alpha (Foxa1, Mus musculus, UniProt P35582, residues 1-468, full length assumed)
Setting: whole designed probe, mean of two concentrations, ends assumed
Shared flanks, not repeated: GTGAGCGGTGCCCATTGATGGGGAAC … TTTCACTGGGATCGTGGGGAC
Residues (chain): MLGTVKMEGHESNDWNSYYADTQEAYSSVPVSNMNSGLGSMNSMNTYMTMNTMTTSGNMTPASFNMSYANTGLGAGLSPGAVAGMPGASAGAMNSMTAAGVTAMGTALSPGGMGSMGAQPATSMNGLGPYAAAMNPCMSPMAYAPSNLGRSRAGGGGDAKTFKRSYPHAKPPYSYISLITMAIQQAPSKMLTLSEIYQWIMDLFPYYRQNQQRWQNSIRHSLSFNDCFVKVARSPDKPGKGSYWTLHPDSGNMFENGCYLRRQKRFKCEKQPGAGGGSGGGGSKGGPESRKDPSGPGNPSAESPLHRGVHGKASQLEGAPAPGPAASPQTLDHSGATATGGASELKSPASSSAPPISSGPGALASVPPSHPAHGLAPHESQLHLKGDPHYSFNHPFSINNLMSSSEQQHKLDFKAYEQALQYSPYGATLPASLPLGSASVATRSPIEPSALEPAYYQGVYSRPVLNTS
Oligonucleotide	normalised bound fraction
AGGCACAAGGTATGAATCACTAAGAATCTAGCAGCAGCTCTAGAAGCCTCCAAAGATAATTGCACTTCCCCAACAGGGGGACGGGGGTGGAGTGTAATTTTGAAAGAACAGTGGATGGCCTAAATCAGTATGTGTCACTCTTTGTAAAGAGCCACAAGTGTTTGACTAGGGAAAAAGGAAAAGAGGCGAGAGT	0.0454 ratio
GTCCAGAAACCTGTCACACTACTAATTTCAACCCCTTGGCCAGAGCTCAGGCACATGGCTGCACCTAGCTGCAAGGGAAGCTAGGAAGGTCTGAGATTATTCTGCACAGCCATGAACTCAGCTAAAAGCCAATCAAATATTTGTAAATAATCTAAACAATTTTAGATAGTGATGTATCCTGGGAAAGAACAAA	0.155 ratio
ACTTTAATTACGATCATTTGGCTTCCACCTGCCTGAACCCGATACCTTACACGGGAACCTGTATGATGTGAGTTTACCAGATTGATCTTTCTTGTTTACTTTTGGAGACAGTTCTCTTGGGAGAAGTGGTGTCCATCCTATTTAATAAAGTAAGTTTTACTTTATCTAATTCTGGCTTGTTTTCTTAAACACC	0.447 ratio
TCTCCCCGTGTGGCATCAAGGCGGGCTCCCTATAGGAGCTGGTGTGGACGTCCGGGCGTGGGGTTAGGGCGGATGCGGGGATGGCCGGGCGGGTGTTGACATTGTGCTCTCACCAGGCGGATCGCCCCGACCCTCACTCCTGGCGTCTGAGTCTCTGGCGTAGCCCATGCTGAGTGGGCGGCTGGTCCTGGGT	0.136 ratio
AGCAAGGCTTTAAAAGTGAGGTCTTTCAGTTTAGATGCAAAAAGGGTGGTTCTGTTGAGTCAACCCAGCTATTTCACTACATAGTTTCGTAATGTAATCTCCTAGAATGAGGTAGCTGGAGTGCAAATCTAAATGGCTTGTGACAGTTAAGGAAGTACATAGGCAACAGTTACTGGTTTTCTTGATGCAGCTG	-0.0645 ratio

Further values, each from its own experiment
Compound	target or system	test	test system	conditions	measurement	value
COc1ccccc1-n1c(=O)n(Cc2cccc(C)c2)c(=O)c2c(C)cc(C)nc21			human, microsomes or S9	2 µM, 0.5 h	remaining compound	0.98%
CC(C)(C)c1nc(-c2cccc(NS(=O)(=O)c3c(F)cccc3F)c2F)c(-c2ccnc(N)n2)s1	TESK1 (Homo sapiens, UniProt Q15569)	kinase-HSP90-CDC37 interaction	human cells		EC50	40 nM

Repeated from above (series 2):
Oligonucleotide	RBNS enrichment (R)
CUGGCUCUGACACUGUUGGGUGAGGGUCCUGGUCCUGCUGUCUUCCCUUCUGGCCUCUGCACAGGGGUGGUGACAGUGGCUACAGGCUGGGCCCCUGGCGUGCCCUGACC	0.228
GUUGAUUUCUCUACAGAGCUUAGCUUGUGUAGUUAUUUCUCUUUUACUGUUGCUUUGGUGUGUCUUGAAGUUUGAUUGAUUAUUUUUGGUCAUUGAGUUCUUAGUGUAGU	1.42
